Results gathered from unrelated publications.
Compare with care: the assays were run in different laboratories.
JAK3 JH1: Tyrosine-protein kinase JAK3, JH1 (JAK3, Homo sapiens, UniProt P52333)
JAK3: Tyrosine-protein kinase JAK3 (JAK3, Homo sapiens, UniProt P52333)

Cc1c[nH]c2nccc(-c3ccc(C(=O)N[C@@H]4c5c(F)cc(C(F)F)cc5C[C@@H]4O)cn3)c12  remaining binding (JAK3 JH1; binding, competition with immobilised ligand; 3 µM): 7%
COc1cc(-n2cc3cc(F)cc(C(N)=O)c3n2)cc(Cl)c1C1CC(O)(CCO)Cc2ccccc21 (stereo not drawn)  inhibition (JAK3; enzyme activity, inhibitor; 10 µM): 0.83%
C=CC(=O)Nc1cccc(-c2cnc3[nH]cc(C(=O)NC(C)(C)C)c3n2)c1  inhibition (JAK3; kinase activity; 0.1 µM): 99%
Cc1ccc(-c2c(/C=C(\C#N)C(=O)NC(C)C)n(CCCO)c3ncnc(N)c23)cc1  remaining binding (JAK3 JH1; cell-free assay, competition with immobilised ligand; 1 µM): 97%
CNC1C[S+]2CC[S+]3CC[S+](C1)[Ru-4]321([N]=C=S)[n]2c3ccc(OC)cc3c3c4c(c5cc(F)c[n+]1c5c32)C(=O)NC4=O (stereo not drawn)  remaining binding (JAK3; KinomeScan; 0.1 µM; reference: untreated): 70%
CN1CCN(Cc2ccc(NC(=O)c3cccc(C#Cc4cnc(N)c5ncccc45)c3)cc2C(F)(F)F)CC1  remaining binding (JAK3 JH1; cell-free assay, competition with immobilised ligand; 0.5 µM): 8.3%
C=CC(=O)N1CCc2ccc(-n3c(=O)ccc4cnc5ccc(-c6cnn(C)c6)cc5c43)cc21  remaining binding (JAK3; KINOMEscan; 1 µM; reference: DMSO control): 60%
COc1ccc(NC(=O)Nc2ccc3c(c2)C(=O)N(C(C)CO)CC(C)C(CN(C)Cc2ccc4c(c2)OCO4)O3)cc1 (stereo not drawn)  remaining binding (JAK3 JH1; binding, competition with immobilised ligand; 10 µM): 66%
C=CC(=O)N1Cc2nc(-c3cc(-c4cc(Cl)cnc4Cl)c(F)cc3F)n(-c3ccncn3)c2C1  inhibition (JAK3; cell-free assay, inhibitor; 1 µM): > 50%
CNC(=O)C1CCN(c2cc(C)c(F)cc2NC(=O)c2ccc(-c3cc(O)ccc3C)c(C)c2)CC1  remaining binding (JAK3 JH1; binding, competition with immobilised ligand; 1 µM): 100%
COc1c(OCCCN2CCOCC2)ccc2c1N=C(NC(=O)c1cnc(N)nc1)N1CCN=C21  remaining activity (JAK3; kinase activity, inhibitor; 1 µM; reference: untreated control): 112%
Cc1cccc(O[C@H]2CCC[C@@H](C(C)CNCc3ccncc3)C2)c1 (relative stereo)  inhibition (JAK3; enzyme activity, inhibitor; 1 µM): 2%
CC(=O)N1c2ccc(-c3ccc(CNC(=O)c4cn5cc(-c6cnc(N)nc6)nc(N6CCOCC6)c5n4)cc3)cc2CC[C@@H]1C  remaining binding (JAK3; KINOMEscan; 10 µM): 100%
CC(C)=CC1OC(C)(C)C2C=C3C(=O)C(Cl)=CC(O)C3C3C(O)C4OC4C(=O)C132 (stereo not drawn)  remaining binding (JAK3 JH1; cell-free assay, competition with immobilised ligand; 10 µM): 66%
O=C(Cc1ccc(OCc2ccccc2)cc1)NC1(C(=O)O)CCN(C(=O)c2ccc(-c3cccc(Cl)c3)cc2)CC1  activity vs control (JAK3; enzyme activity, inhibitor; 10 µM): 106%
NC(=O)C[C@H]1CCc2sc3ncnc(O[C@H]4CC[C@H](N5CCOCC5)CC4)c3c21  inhibition (JAK3; enzyme activity, inhibitor; 10 µM): 10%
CN1CCN(Cc2ccc(-c3ccc(CO[C@H]4CCC[C@@H]4NC(=O)c4cc(-c5cnn(C)c5)cnc4N)cc3)cc2)CC1  inhibition (JAK3; enzyme activity, inhibitor; 0.1 µM): -10%
Cc1nc2c(F)cc(-c3nc(Nc4ccc(CNC(=O)CCCCCCC(=O)NO)cc4)ncc3F)cc2n1C(C)C  inhibition (JAK3; enzyme activity, inhibitor; 1 µM): 97%
Nc1ncc(-c2cc(-c3cnn(CC(F)(F)F)c3)ncc2F)nc1C(=O)NC1CNCC(F)C1 (stereo not drawn)  remaining activity (JAK3; enzyme activity; 1 µM; reference: DMSO control): 98.5%
COc1ccc(C(=O)/C=C/c2ccccc2-c2c[nH]c3ccc(C#N)cc23)c(O)c1  inhibition (JAK3; enzyme activity, inhibitor; 20 µM): 9%
CCN1CCN(Cc2ccc(C(=O)Nc3ccc(C)c(NCc4cnc5[nH]ccc5c4OC)c3)cc2C(F)(F)F)CC1  remaining binding (JAK3 JH1; binding, competition with immobilised ligand; 1 µM): 12%

A few entries again:
CCN1CCN(Cc2ccc(C(=O)Nc3ccc(C)c(NCc4cnc5[nH]ccc5c4OC)c3)cc2C(F)(F)F)CC1  remaining binding (JAK3 JH1; binding, competition with immobilised ligand; 1 µM): 12%
CC(=O)N1c2ccc(-c3ccc(CNC(=O)c4cn5cc(-c6cnc(N)nc6)nc(N6CCOCC6)c5n4)cc3)cc2CC[C@@H]1C  remaining binding (JAK3; KINOMEscan; 10 µM): 100%
COc1cc(-n2cc3cc(F)cc(C(N)=O)c3n2)cc(Cl)c1C1CC(O)(CCO)Cc2ccccc21 (stereo not drawn)  inhibition (JAK3; enzyme activity, inhibitor; 10 µM): 0.83%
